{"data": "Measured values collected from several papers", "note": "A part holds a random share of what one study measured. Changes are numbered by the printed parent chain."}
{"data": "Block 1", "target": "CCNE1, cyclin fold, Cln2 fusion (human)", "method": "yeast growth competition, sequencing", "sample": "yeast", "setting": "weak parent motif", "relative to": "not given", "direction": "higher = stronger binding", "parent": "WEE1 docking peptide (human); CTLRQKLIFSPCS"}
{"Change": "CTLRAKLIFSPCS [Q5A]", "normalised enrichment score": 0.86}
{"Change": "CTARQKLIFSPCS [L3A]", "normalised enrichment score": 0.911}
{"Change": "CTLRQKLIFSACS [P11A]", "normalised enrichment score": 0.522}
{"Change": "CTLRQALIFSPCS [K6A]", "normalised enrichment score": 0.291}
{"Change": "CTLRQKLIFSPCA [S13A]", "normalised enrichment score": 0.547}
{"Change": "CTLRQKLAFSPCS [I8A]", "normalised enrichment score": 0.475}
{"Change": "CTLRQKLIASPCS [F9A]", "normalised enrichment score": -0.0588}
{"data": "Block 2", "target": "RNA binding protein fox-1 homolog 2, RRM domain, GST-SBP tag (RBFOX2, Homo sapiens, UniProt O43251-10, residues 100-194)", "method": "RNA Bind-n-Seq", "molecule type": "RNA", "sample": "in vitro", "tested at": "365 nM", "setting": "natural RNA segment, single round, ends assumed", "relative to": "no-protein control", "direction": "higher = stronger binding", "Target sequence (chain)": "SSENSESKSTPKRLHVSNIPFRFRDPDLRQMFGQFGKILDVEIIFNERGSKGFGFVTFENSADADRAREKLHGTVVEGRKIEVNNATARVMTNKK"}
{"Oligonucleotide": "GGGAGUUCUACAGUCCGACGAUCAUAGCACUAAUUUUUAUUUGUGGUAUUUUUCUAUAACAAAACAAGUAGCUCUAGGAAAAGAGGUUUUAUUUUGUAAACGAUCAUUUGUGACCUCAGACACUCUCUGGCUAUGGAAUUCUCGGGUGCCAA", "RBNS enrichment (R)": 0.32}
{"Oligonucleotide": "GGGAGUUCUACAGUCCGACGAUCAUGCACCGUUUUGAUGCCCAUGCAACAGUGAGGAAGAAAAACCCUCGAGACAUUUUUUCUGUACUCAUAUUUAGAUUCACAAUGGUUGUGUAUCUCUAUAAUGUGAAAUAUGGAAUUCUCGGGUGCCAA", "RBNS enrichment (R)": 0.492}
{"Oligonucleotide": "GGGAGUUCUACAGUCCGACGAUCCUUGAGAAGUGUAGGUCUACUGAAGAACCAUUACAAAUGGACGUCAGAGGUGUGCUGUACUUUUGAAGGUAUUUUAUUGUAUUAGGUUUAAUGAAGCUAAAAGUAGGGAAUGGAAUUCUCGGGUGCCAA", "RBNS enrichment (R)": 0.513}
{"Oligonucleotide": "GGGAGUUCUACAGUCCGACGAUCUGGUAAGAGUCUUUAUUAAAGUUUUAAGUGUCUAAAGGGACUGUCCACGCCUGUACAUUUCAGAUGGCAGCGAUUUGGGUCCUUGGGGCUUUUGGCCCUUGGCCAGAAGUUGGAAUUCUCGGGUGCCAA", "RBNS enrichment (R)": 0.367}
{"Oligonucleotide": "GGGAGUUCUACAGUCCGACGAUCGUGGUAUAAGCAAAACUACAUGGACUCUGUCCUGGUAUCCUUUUCCUGUGUGGUUGCCCCGUGUCCUCUGGCCUAGGGUUAAGUGUGCAAGAUAACUACUCGUGAGUAUUUGGAAUUCUCGGGUGCCAA", "RBNS enrichment (R)": 0.24}
{"Oligonucleotide": "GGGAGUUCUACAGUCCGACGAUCGUUAUUUUGGACAACAUAAAAUUCAGGAAUGUUUUAUUUAGCCUUGGUUUCUAGAAGGAAGGGAAAUAAUAUUUCUUGAGCAUUUACUAGGGUGUUGCGUGCUGUGCUAAUGGAAUUCUCGGGUGCCAA", "RBNS enrichment (R)": 1.62}
{"Oligonucleotide": "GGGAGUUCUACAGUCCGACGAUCUACCCGCUGCCCCACAUACCCAGCAUGCCGCUGUGGCCACCAUGUCCUCAAAGCCUUCUGUCUGUAUCAGGAAUGUAGUCUGAGACUGCCAGGAAGCAACAAGGAGAGAGUGGAAUUCUCGGGUGCCAA", "RBNS enrichment (R)": 1.7}
{"Oligonucleotide": "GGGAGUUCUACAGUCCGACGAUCGGCUCGUGAAUCCACUUAGAAUUCUUGGCUUGUGUCGCAUACUGGGUGUCACGGCACACAUUUACUCUGCAUUGUCCCCGUCUUUCCCAUCGCCUAGCGUUUGGGGAGGAUGGAAUUCUCGGGUGCCAA", "RBNS enrichment (R)": 0.406}
{"data": "Block 3", "target": "ABI1, truncated, D143A, DHFR fusion (Arabidopsis thaliana)", "method": "DHFR PCA, deep sequencing", "sample": "yeast", "setting": "methotrexate growth selection, single substitutions", "added": "(+)-ABA 58 µM", "relative to": "wild-type fitted maximum", "direction": "higher = stronger binding", "parent": "PYL1, truncated, DHFR fusion (Arabidopsis thaliana); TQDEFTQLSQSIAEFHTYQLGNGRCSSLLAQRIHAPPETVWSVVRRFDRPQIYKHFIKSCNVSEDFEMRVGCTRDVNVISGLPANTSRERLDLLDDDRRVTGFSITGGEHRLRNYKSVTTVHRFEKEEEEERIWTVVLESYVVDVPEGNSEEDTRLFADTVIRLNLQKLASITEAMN; partner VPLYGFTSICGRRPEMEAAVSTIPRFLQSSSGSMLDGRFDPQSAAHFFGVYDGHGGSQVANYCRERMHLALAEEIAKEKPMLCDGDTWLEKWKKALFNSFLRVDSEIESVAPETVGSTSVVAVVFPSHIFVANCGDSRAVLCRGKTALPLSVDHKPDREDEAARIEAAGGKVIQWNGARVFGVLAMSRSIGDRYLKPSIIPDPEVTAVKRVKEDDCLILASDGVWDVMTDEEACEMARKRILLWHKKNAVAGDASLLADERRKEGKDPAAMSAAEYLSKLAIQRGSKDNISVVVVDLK"}
{"Change": "H110L", "relative binding score": "0.481%"}
{"Change": "Q31T", "relative binding score": "48.9%"}
{"Change": "V137N", "relative binding score": "2.65%"}
{"Change": "Q10T", "relative binding score": "89.9%"}
{"Change": "S171W", "relative binding score": "72.5%"}
{"Change": "R49F", "relative binding score": "54.1%"}
{"Change": "R132Y", "relative binding score": "85.1%"}
{"Change": "V118P", "relative binding score": "2.28%"}
{"Change": "T86I", "relative binding score": "51.1%"}
{"Change": "M68T", "relative binding score": "76.8%"}
{"Change": "I133E", "relative binding score": "103%"}
{"Change": "F5V", "relative binding score": "91.9%"}
{"Change": "G81N", "relative binding score": "21.6%"}
{"Change": "M176C", "relative binding score": "73.5%"}
{"Change": "L93T", "relative binding score": "90%"}
{"Change": "G71S", "relative binding score": "37.9%"}
{"Change": "P37H", "relative binding score": "31.6%"}
{"Change": "E64F", "relative binding score": "76%"}
{"Change": "C25K", "relative binding score": "3.5%"}
{"data": "Block 4", "target": "CREBZF, bZIP domain (human)", "method": "DHFR protein complementation", "sample": "yeast", "setting": "single substitutions, most at no-binding floor", "relative to": "wild-type JUN-FOS pair", "direction": "higher = stronger binding", "parent": "JUN, bZIP domain (human); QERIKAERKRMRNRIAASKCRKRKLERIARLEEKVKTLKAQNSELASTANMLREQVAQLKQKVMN; partner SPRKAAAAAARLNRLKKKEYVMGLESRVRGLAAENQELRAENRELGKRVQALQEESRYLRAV"}
{"Change": "A46G", "binding fitness": "-1.52 natural log"}
{"Change": "R53N", "binding fitness": "-1.49 natural log"}
{"Change": "Q55I", "binding fitness": "-1.57 natural log"}
{"Change": "A49C", "binding fitness": "-1.41 natural log"}
{"Change": "Q55S", "binding fitness": "-1.44 natural log"}
{"Change": "E32S", "binding fitness": "-1.45 natural log"}
{"Change": "A29D", "binding fitness": "-1.52 natural log"}
{"Change": "E44L", "binding fitness": "-1.46 natural log"}
{"Change": "K39S", "binding fitness": "-1.35 natural log"}
{"Change": "E33L", "binding fitness": "-1.51 natural log"}
{"Change": "N42R", "binding fitness": "-1.47 natural log"}
{"Change": "L38I", "binding fitness": "-1.52 natural log"}
{"Change": "A49M", "binding fitness": "-1.53 natural log"}
{"Change": "S47R", "binding fitness": "-1.41 natural log"}
{"Change": "E32N", "binding fitness": "-1.47 natural log"}
{"Change": "A57Q", "binding fitness": "-1.47 natural log"}
{"Change": "K39N", "binding fitness": "-1.58 natural log"}
{"Change": "L52P", "binding fitness": "-1.55 natural log"}
